{"data": "Measurements collected from several papers", "note": "Every numbered part comes from another study and shows a few of its results, in no order. Changes are numbered by the printed parent chain."}
{"data": "Sample 1", "target": "TAR DNA-binding protein 43, full length, His tag (TARDBP, Homo sapiens, UniProt Q13148, residues 1-414)", "technique": "RNA Bind-n-Seq", "form": "RNA", "matrix": "in vitro", "tested at": "20 nM", "notes": "6-mer, flanks averaged, single round", "added": "150 mM KCl", "baseline": "input library", "direction": "higher = stronger binding"}
{"Oligonucleotide": "CGUGAG", "6-mer enrichment (R)": 1.42}
{"Oligonucleotide": "CGAACA", "6-mer enrichment (R)": 0.656}
{"Oligonucleotide": "UUACCG", "6-mer enrichment (R)": 0.629}
{"Oligonucleotide": "GCCUAC", "6-mer enrichment (R)": 0.698}
{"Oligonucleotide": "GCAGGU", "6-mer enrichment (R)": 1.48}
{"Oligonucleotide": "UCGAGG", "6-mer enrichment (R)": 1.6}
{"Oligonucleotide": "CCCUGC", "6-mer enrichment (R)": 0.669}
{"Oligonucleotide": "UACCCA", "6-mer enrichment (R)": 0.623}
{"Oligonucleotide": "CGGUGA", "6-mer enrichment (R)": 1.3}
{"Oligonucleotide": "GUGAAG", "6-mer enrichment (R)": 1.67}
{"Oligonucleotide": "GAAAUC", "6-mer enrichment (R)": 0.606}
{"Oligonucleotide": "AUGGCA", "6-mer enrichment (R)": 0.859}
{"Oligonucleotide": "CUAUGC", "6-mer enrichment (R)": 0.632}
{"Oligonucleotide": "CCACAU", "6-mer enrichment (R)": 0.629}
{"Oligonucleotide": "GUCAAG", "6-mer enrichment (R)": 0.992}
{"Oligonucleotide": "CUCCGA", "6-mer enrichment (R)": 0.617}
{"Oligonucleotide": "GUUUCG", "6-mer enrichment (R)": 0.777}
{"Oligonucleotide": "CCUUUA", "6-mer enrichment (R)": 0.601}
{"Oligonucleotide": "CUUGGU", "6-mer enrichment (R)": 0.753}
{"data": "Sample 2", "target": "Centromere-binding protein 1, full length, N-terminal tag (CBF1, Saccharomyces cerevisiae, UniProt P17106, residues 1-351)", "technique": "protein-binding microarray", "form": "double-stranded DNA, one strand shown", "matrix": "in vitro", "tested at": "0.8 µM", "notes": "whole 60-bp probe, no competitor", "direction": "higher = stronger binding", "chain of UniProt P17106 (whole entry, looked up)": "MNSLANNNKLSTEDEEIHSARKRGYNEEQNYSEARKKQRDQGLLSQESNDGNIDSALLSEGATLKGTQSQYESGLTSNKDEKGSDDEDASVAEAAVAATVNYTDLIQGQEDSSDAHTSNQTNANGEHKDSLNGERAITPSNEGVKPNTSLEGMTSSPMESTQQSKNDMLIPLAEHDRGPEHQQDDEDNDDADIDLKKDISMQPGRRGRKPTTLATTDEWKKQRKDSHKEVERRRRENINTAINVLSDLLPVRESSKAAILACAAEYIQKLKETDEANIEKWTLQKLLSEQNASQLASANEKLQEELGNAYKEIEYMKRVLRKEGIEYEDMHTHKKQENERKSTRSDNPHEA"}
{"Oligonucleotide": "GAACCGTTACATTTGCACGTTCAGCGTAATGAGTAGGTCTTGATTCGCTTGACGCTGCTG", "fluorescence intensity [a.u.]": 674}
{"Oligonucleotide": "GAATTTGACATTGTTCACATGATTGTTGCTCTGTAGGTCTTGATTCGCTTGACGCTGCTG", "fluorescence intensity [a.u.]": 924}
{"Oligonucleotide": "GAACAATGTGCGAGGGCCCACGTGGCTTAATACTAGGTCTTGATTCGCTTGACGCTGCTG", "fluorescence intensity [a.u.]": 4310}
{"Oligonucleotide": "GAATACTTCAACACTCTCACGAGTTTAATTCAATAGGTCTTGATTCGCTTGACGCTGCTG", "fluorescence intensity [a.u.]": 576}
{"Oligonucleotide": "CTATGAAACAATCGGCATGTGGTTTATACCTCTTTCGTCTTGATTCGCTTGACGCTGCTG", "fluorescence intensity [a.u.]": 593}
{"Oligonucleotide": "CTAGCACCCTTTGGACTCGTGATTCCGTGGAAATTCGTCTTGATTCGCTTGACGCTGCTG", "fluorescence intensity [a.u.]": 1020}
{"Oligonucleotide": "CTACCTAGGAAAGTTAACGTGGTCATACTTTTTTTCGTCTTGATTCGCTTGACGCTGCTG", "fluorescence intensity [a.u.]": 611}
{"Oligonucleotide": "CTATTCTAGTAGCTTTACGTGACGAATTAAACCTTCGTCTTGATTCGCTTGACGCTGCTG", "fluorescence intensity [a.u.]": 671}
{"Oligonucleotide": "CCTAACTACTATAGGCACGCCTAATAGCTTCGTACAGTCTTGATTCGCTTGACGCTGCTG", "fluorescence intensity [a.u.]": 482}
{"Oligonucleotide": "GAAAAATGGCAACAGTACATCAGAAGAATATGTTAGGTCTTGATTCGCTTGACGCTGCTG", "fluorescence intensity [a.u.]": 514}
{"Oligonucleotide": "CTATACGGTGCCTCGCACATGAATGTTATCCGGTTCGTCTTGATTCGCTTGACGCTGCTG", "fluorescence intensity [a.u.]": 528}
{"Oligonucleotide": "GAATTATTTTAAGGACATGTGAGCCATAGTGCATAGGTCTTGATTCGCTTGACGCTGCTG", "fluorescence intensity [a.u.]": 1260}
{"Oligonucleotide": "GAACTCAACTTTGAATATGATCACATTATTTTTTAGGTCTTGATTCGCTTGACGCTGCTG", "fluorescence intensity [a.u.]": 1270}
{"Oligonucleotide": "GAAATATTTTACGAGCACGCTAACACAATGCTTTAGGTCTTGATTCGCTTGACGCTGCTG", "fluorescence intensity [a.u.]": 573}
{"Oligonucleotide": "CTAATATATCTCCGTCAGGTTCGATCCAGACTCTTCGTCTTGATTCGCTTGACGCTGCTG", "fluorescence intensity [a.u.]": 528}
{"Oligonucleotide": "GAATGATGAGTATTCAAGGTGACGGAATATTATTAGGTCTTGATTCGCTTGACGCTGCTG", "fluorescence intensity [a.u.]": 527}
{"Oligonucleotide": "GAATGGGGACGTCATCACCCCCAAAGCACCTCATAGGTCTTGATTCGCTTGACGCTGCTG", "fluorescence intensity [a.u.]": 611}
{"Oligonucleotide": "GAATATGTCACTAACGACGTGCACCAACTTGCGTAGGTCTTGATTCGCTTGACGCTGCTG", "fluorescence intensity [a.u.]": 522}
{"Oligonucleotide": "TGTACGAAGCTATGGAACGTGTGTATAGTAGTTAGGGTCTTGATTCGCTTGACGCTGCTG", "fluorescence intensity [a.u.]": 530}
{"data": "Sample 3", "target": "Histone acetyltransferase KAT6A, winged helix 2, GST fusion (KAT6A, Homo sapiens, UniProt Q92794, residues 85-181)", "technique": "protein binding microarray", "form": "double-stranded DNA, one strand shown", "matrix": "in vitro", "tested at": "not given", "notes": "8-mer, flanks averaged, mean of 2 arrays, mostly near background", "baseline": "not given", "direction": "higher = stronger binding", "Residues (chain)": "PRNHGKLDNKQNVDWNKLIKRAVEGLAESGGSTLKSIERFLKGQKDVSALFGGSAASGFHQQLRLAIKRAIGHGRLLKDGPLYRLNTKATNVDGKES"}
{"Oligonucleotide": "GAAAATCC", "E-score": 0.0906}
{"Oligonucleotide": "AAGCTGCA", "E-score": 0.0415}
{"Oligonucleotide": "CCGCAACG", "E-score": 0.145}
{"Oligonucleotide": "GAGTGATC", "E-score": -0.00685}
{"Oligonucleotide": "AGCCATAT", "E-score": -0.0695}
{"Oligonucleotide": "AGCGGCTA", "E-score": 0.055}
{"Oligonucleotide": "ACCACGAG", "E-score": -0.0941}
{"Oligonucleotide": "CCCAACGA", "E-score": -0.031}
{"Oligonucleotide": "AGGACTTA", "E-score": -0.127}
{"Oligonucleotide": "TACGTTAA", "E-score": -0.127}
{"Oligonucleotide": "CTGTCGTA", "E-score": -0.0507}
{"Oligonucleotide": "GGGCGACC", "E-score": 0.0426}
{"Oligonucleotide": "ACCTGCGG", "E-score": 0.143}
{"Oligonucleotide": "CAATGACG", "E-score": -0.0701}
{"Oligonucleotide": "GGCCGTAA", "E-score": 0.144}
{"Oligonucleotide": "AGATCCCC", "E-score": -0.0181}
{"Oligonucleotide": "GGCTGGGA", "E-score": -0.00497}
{"data": "Sample 4", "target": "CREB5, bZIP domain (human)", "technique": "DHFR protein complementation", "matrix": "yeast", "notes": "single substitutions, most at no-binding floor", "baseline": "wild-type JUN-FOS pair", "direction": "higher = stronger binding", "starting sequence": "JUN, bZIP domain (human); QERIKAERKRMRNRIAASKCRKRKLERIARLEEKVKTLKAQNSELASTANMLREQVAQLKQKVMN; partner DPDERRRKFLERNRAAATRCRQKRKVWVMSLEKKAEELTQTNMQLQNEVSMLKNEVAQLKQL"}
{"Change": "Q41E", "binding fitness [natural log]": -0.297}
{"Change": "R53D", "binding fitness [natural log]": -1.33}
{"Change": "Q41A", "binding fitness [natural log]": -0.323}
{"Change": "V35A", "binding fitness [natural log]": -1.23}
{"Change": "L52W", "binding fitness [natural log]": -1.28}
{"Change": "E33M", "binding fitness [natural log]": -0.403}
{"Change": "T48M", "binding fitness [natural log]": -0.209}
{"Change": "A46C", "binding fitness [natural log]": -0.438}
{"Change": "S47F", "binding fitness [natural log]": -0.359}
{"Change": "K36D", "binding fitness [natural log]": -0.294}
{"Change": "Q58W", "binding fitness [natural log]": -0.318}
{"Change": "L31F", "binding fitness [natural log]": -0.988}
{"Change": "L31N", "binding fitness [natural log]": -1.23}
{"Change": "T37E", "binding fitness [natural log]": -0.192}
{"Change": "Q41V", "binding fitness [natural log]": -0.502}
{"Change": "S43Y", "binding fitness [natural log]": -0.415}
{"Change": "K34L", "binding fitness [natural log]": -0.224}
{"data": "Sample 5", "target": "CCNB1, cyclin fold, Cln2 fusion (human)", "technique": "yeast growth competition, sequencing", "matrix": "yeast", "notes": "strong parent motif", "baseline": "not given", "direction": "higher = stronger binding", "starting sequence": "PKMYT1 docking peptide (human); SFEPRNLLSLFED; partner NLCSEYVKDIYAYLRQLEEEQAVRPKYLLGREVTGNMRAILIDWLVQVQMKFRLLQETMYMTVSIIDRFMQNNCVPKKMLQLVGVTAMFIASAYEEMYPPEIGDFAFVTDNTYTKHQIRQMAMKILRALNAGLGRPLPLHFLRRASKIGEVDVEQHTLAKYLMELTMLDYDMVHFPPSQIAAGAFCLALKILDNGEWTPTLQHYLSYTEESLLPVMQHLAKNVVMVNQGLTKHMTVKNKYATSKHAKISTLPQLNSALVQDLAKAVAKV"}
{"Change": "L7V", "normalised enrichment score": 0.00212}
{"Change": "E12N", "normalised enrichment score": 1.06}
{"Change": "S1Q", "normalised enrichment score": 1.67}
{"Change": "S9G", "normalised enrichment score": 0.803}
{"Change": "D13A", "normalised enrichment score": 0.382}
{"Change": "L10P", "normalised enrichment score": -0.527}
{"Change": "L10R", "normalised enrichment score": 0.233}
{"Change": "L8N", "normalised enrichment score": 0.842}
{"Change": "E3W", "normalised enrichment score": 0.477}
{"Change": "S9K", "normalised enrichment score": 1.28}
{"Change": "N6A", "normalised enrichment score": 0.995}
{"Change": "P4D", "normalised enrichment score": 0.15}
{"Change": "L7R", "normalised enrichment score": -0.552}
{"Change": "P4C", "normalised enrichment score": 0.566}
{"Change": "N6F", "normalised enrichment score": 0.291}
{"Change": "F2H", "normalised enrichment score": -0.708}
{"Change": "P4R", "normalised enrichment score": 1.11}
{"Change": "S1E", "normalised enrichment score": 1.32}
{"Change": "L10Q", "normalised enrichment score": 0.589}
{"Change": "F11R", "normalised enrichment score": -0.624}
{"Change": "R5E", "normalised enrichment score": 0.145}
{"Change": "E3T", "normalised enrichment score": 1.85}
{"Change": "F11G", "normalised enrichment score": -0.201}
{"Change": "F2N", "normalised enrichment score": -0.23}
{"Change": "E12C", "normalised enrichment score": 1.03}
{"data": "Sample 6", "target": "ABI1, truncated, D143A, DHFR fusion (Arabidopsis thaliana)", "technique": "DHFR PCA, deep sequencing", "matrix": "yeast", "notes": "methotrexate growth selection, single substitutions", "added": "(+)-ABA 200 µM", "baseline": "wild-type fitted maximum", "direction": "higher = stronger binding", "starting sequence": "PYL1, truncated, DHFR fusion (Arabidopsis thaliana); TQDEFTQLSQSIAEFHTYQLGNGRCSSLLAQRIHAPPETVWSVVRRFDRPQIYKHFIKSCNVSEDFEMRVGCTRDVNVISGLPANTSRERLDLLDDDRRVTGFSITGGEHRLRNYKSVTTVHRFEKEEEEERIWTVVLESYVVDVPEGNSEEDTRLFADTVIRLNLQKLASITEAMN"}
{"Change": "E64G", "relative binding score [%]": 100}
{"Change": "G71W", "relative binding score [%]": 23}
{"Change": "A84H", "relative binding score [%]": 40.3}
{"Change": "L93M", "relative binding score [%]": 80}
{"Change": "V121Q", "relative binding score [%]": 2.88}
{"Change": "Q167I", "relative binding score [%]": 86.1}
{"Change": "I52E", "relative binding score [%]": 99.6}
{"Change": "V161F", "relative binding score [%]": 88.9}
{"Change": "E130P", "relative binding score [%]": 112}
{"Change": "R123G", "relative binding score [%]": 102}
{"note": "Excerpt of the above (sample 2):"}
{"Oligonucleotide": "GAAAAATGGCAACAGTACATCAGAAGAATATGTTAGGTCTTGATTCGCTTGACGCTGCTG", "fluorescence intensity [a.u.]": 514}
{"Oligonucleotide": "CTATACGGTGCCTCGCACATGAATGTTATCCGGTTCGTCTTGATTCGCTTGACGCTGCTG", "fluorescence intensity [a.u.]": 528}
{"Oligonucleotide": "GAATTATTTTAAGGACATGTGAGCCATAGTGCATAGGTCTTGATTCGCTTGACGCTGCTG", "fluorescence intensity [a.u.]": 1260}
{"Oligonucleotide": "GAACTCAACTTTGAATATGATCACATTATTTTTTAGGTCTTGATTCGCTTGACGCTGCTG", "fluorescence intensity [a.u.]": 1270}
{"Oligonucleotide": "GAAATATTTTACGAGCACGCTAACACAATGCTTTAGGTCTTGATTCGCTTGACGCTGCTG", "fluorescence intensity [a.u.]": 573}
{"Oligonucleotide": "CTAATATATCTCCGTCAGGTTCGATCCAGACTCTTCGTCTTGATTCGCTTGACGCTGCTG", "fluorescence intensity [a.u.]": 528}
